Published values gathered from unrelated publications.
Numbered parts are unrelated; each lists some results of a single study. Changes are numbered by the printed parent chain.

Block 1
Target: CCNF, cyclin fold, Cln2 fusion (human)
Method: yeast growth competition, sequencing
Matrix: yeast
Notes: strong parent motif
Baseline: not given
Reading: higher = stronger binding
Measurement: normalised enrichment score
Starting sequence: RB1 docking peptide (human); PKPLKKLRFDIEG
PKPIKKLRFDIEG [L4I]: 4.08
PKPLKKDRFDIEG [L7D]: -0.529
PKQLKKLRFDIEG [P3Q]: 0.989
PKPLKKLRKDIEG [F9K]: 1.3
PKPLKKSRFDIEG [L7S]: 1.11
PKPPKKLRFDIEG [L4P]: 1.31
QKPLKKLRFDIEG [P1Q]: 2.2
PKPKKKLRFDIEG [L4K]: 4.12
PKPLKMLRFDIEG [K6M]: 1.1
PKPLKKLRFLIEG [D10L]: 2.92
PKPLKKLRFDIEN [G13N]: 1.15
FKPLKKLRFDIEG [P1F]: 1.05
PKPLKKLRFWIEG [D10W]: 2.59
NKPLKKLRFDIEG [P1N]: 0.166
YKPLKKLRFDIEG [P1Y]: 1.95
PKPLKKLRFDIGG [E12G]: 1.62
PKPLKKLRDDIEG [F9D]: 0.797

Block 2
Target: Histone acetyltransferase KAT6A, winged helix 1, GST fusion (KAT6A, Homo sapiens, UniProt Q92794, residues 1-85)
Method: protein binding microarray
Molecule type: double-stranded DNA, one strand shown
Matrix: in vitro
Tested at: not given
Notes: 8-mer, flanks averaged, mean of 2 arrays, mostly near background
Baseline: not given
Reading: higher = stronger binding
Measurement: E-score
Construct (chain): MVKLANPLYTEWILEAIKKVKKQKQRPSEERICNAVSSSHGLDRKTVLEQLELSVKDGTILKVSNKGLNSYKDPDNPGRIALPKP
GGGCACGA: 0.0163
AATAGCCG: 0.251
CTATGATC: -0.0276
AACAACGT: -0.125
CTTGGGCC: 0.0227
CACCAAGA: -0.184
ACCGGTGG: 0.111
GCCGCGCA: 0.465
GATAGGCA: -0.249
CAAGCATG: -0.176
CGGTTTGA: 0.0506
CTTGCAGC: 0.0887
CGTACGAG: 0.175
CATCCTCC: -0.0906
ACATCGGG: 0.112
AATGTCTC: 0.0556
AAGGTGTG: -0.181
TCCAGGCA: -0.224
ATACCGGC: 0.343
CTCCGCCC: 0.188
CGACTATC: -0.0195
GATGACGA: -0.0261
CATCACCC: 0.0553
GTCTCGCA: -0.0121
GCTAAAGA: -0.113

Block 3
Target: Sal-like protein 4, full length isoform B (SALL4, Homo sapiens, UniProt Q9UJQ4-2, residues 1-616)
Method: universal PBM
Molecule type: double-stranded DNA, one strand shown
Matrix: in vitro
Tested at: not given
Notes: 8-mer, flanks averaged, mean of replicates
Reading: higher = stronger binding
Measurement: E-score
GGTTAATA: 0.278
ACGACAGC: -0.0809
AGAACGGC: -0.176
ATGTGAAT: 0.196
CCCACGCA: -0.0365
ACCAAAAC: 0.171
AACTGTCT: -0.11
GCAAGTTA: 0.0546
TATGCCCA: -0.0706
ATCGAGAA: 0.0545
ACGCCAAC: -0.061
CATTCTAC: 0.0578
ACATTACG: 0.185
ATATACTG: 0.231
ACGTCCTG: -0.216
AGAGAACG: 0.0172
CCATGCAA: 0.144
CAGTTTGG: -0.096
ACTGAGCG: -0.258
AGACGAAC: 0.00318
TAACCATA: 0.281
ACCATGCA: 0.00729
AGGCCAAC: -0.172
AGGCAGCC: -0.301
CGTAGTAA: 0.127

Block 4
Target: RNA binding protein fox-1 homolog 2, RRM domain, GST-SBP tag (RBFOX2, Homo sapiens, UniProt O43251-10, residues 100-194)
Method: RNA Bind-n-Seq
Molecule type: RNA
Matrix: in vitro
Tested at: 365 nM
Notes: natural RNA segment, single round, ends assumed
Baseline: no-protein control
Reading: higher = stronger binding
Measurement: RBNS enrichment (R)
Residues (chain): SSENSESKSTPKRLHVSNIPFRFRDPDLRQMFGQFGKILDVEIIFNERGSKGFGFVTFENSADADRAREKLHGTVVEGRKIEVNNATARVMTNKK
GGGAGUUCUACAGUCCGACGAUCCUCAUCACUGAGGAUCAUGAAACACAGUAGGGGUGUGUGGAGCCUUGGGACGUGAGCAGUCUCCAGAAAGAGGCCUGAGAGAGAGCAUGAACACUUAUCUUUGUGAGUGAUGGAAUUCUCGGGUGCCAA: 21.8
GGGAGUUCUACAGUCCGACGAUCCAAAGAGAAGCAAUACACAGUAUGUCUGCUUUAGCCUUCUUUUAUUUAUCUCAUCUGCAGAUGUUGAGAAUGUAUGCAUUAUGUAAAAUGCUUGUUUUUUUAUCCCUGUUUGGAAUUCUCGGGUGCCAA: 0.509
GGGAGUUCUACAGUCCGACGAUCUGUGAUAUUAUAAAGGCAACACUUGUGACACUUCCACUAGCUAGGUGUGUAACCCUGGGUAGGCCACUCCAUCUCCUAGGUGUGUAACCCUGGACAGGACAUUUCACCUGUGGAAUUCUCGGGUGCCAA: 0.421
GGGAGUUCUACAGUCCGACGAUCGGCUCUACAGUGCUUACUGCAGCCUUGUGUCCACCACCAACUUCUCAGCAUGUUUCUCUCCUUGGACCUUGGGUUUCCAACUCUGCAGCCUUCAGGUCUGGGGCCAGGAGUGGAAUUCUCGGGUGCCAA: 19.6
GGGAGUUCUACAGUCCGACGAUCGUACAACUCUUAAGAAAGCCAUACUUAAUGGUGAUGUUAUUUUUUAGAUCCUAUUGUGAUUUGUAUGUGGCUCUUUUAGAAUCACUUGUAGUGAGGGUGCUGUGUGUGCUUGGAAUUCUCGGGUGCCAA: 1.47
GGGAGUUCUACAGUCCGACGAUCAUUGAAUUAUACUCACCAACACAUAGAACAGGCCCUUUAGAAGGCACUAGGUGUUUGGAGGUGAGCUAGGAAGACCAGUGGUAUGUUGAGCCCCUUACAGAUAAGCACCGUGGAAUUCUCGGGUGCCAA: 0.376
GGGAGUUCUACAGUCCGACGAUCGCUGAGAAUCAUGAAAGACAGAUCCUCCGCUAGCCUCUGUGGGUCAAGUUUCUGGACACCAAGUCUCUGGGAACUAGUGUUUGAUUUUAAAUGGCAUGUGGCCCUUCCUUUGGAAUUCUCGGGUGCCAA: 0.71
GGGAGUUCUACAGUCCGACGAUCAGGAGGGGCCCGUUGUCUCCCUGGCCCUCAAGGCCUCCCACAGUGACUCGGGCUCCUGUGCCCUUAUUCAGGAAAAGCCUCUGUGUCACUGGCUGCCUCCACUCCCACUUUGGAAUUCUCGGGUGCCAA: 0.251
